Experimental data gathered from unrelated publications.
Each numbered part is a random draw from the data of one study; scales do not carry over between parts. Positions count from the first letter of the parent shown.

Study 1
Target: ABI1, truncated, D143A, DHFR fusion (Arabidopsis thaliana)
Technique: DHFR PCA, deep sequencing
Sample: yeast
Notes: methotrexate growth selection, single substitutions
Together with: (+)-ABA 17 µM
Baseline: wild-type fitted maximum
Reading: higher = stronger binding
Starting sequence: PYL1, truncated, DHFR fusion (Arabidopsis thaliana); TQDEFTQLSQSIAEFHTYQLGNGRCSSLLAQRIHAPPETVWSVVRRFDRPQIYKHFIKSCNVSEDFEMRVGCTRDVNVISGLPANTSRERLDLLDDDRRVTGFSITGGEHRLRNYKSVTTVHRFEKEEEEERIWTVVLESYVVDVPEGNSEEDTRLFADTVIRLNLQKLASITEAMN
`D95M` — result for “relative binding score”: 45.1%.
`S9Q` — result for “relative binding score”: 83.9%.
Under “relative binding score”, `N165P` is recorded as 7.83%.
For `A84T`, “relative binding score” read 11%.

Study 2
Target: CCNF, cyclin fold, Cln2 fusion (human)
Technique: yeast growth competition, sequencing
Sample: yeast
Notes: weak parent motif
Baseline: not given
Reading: higher = stronger binding
Starting sequence: CDC42EP1 docking peptide (human); SLVVGKLSFDSSP
For `SLAVGKLSFDSSP [V3A]`, “normalised enrichment score” read -0.101.
For `SLVVGKLSADSSP [F9A]`, “normalised enrichment score” read -1.07.
`SLVAGKLSFDSSP [V4A]`: “normalised enrichment score” -0.118.
`SLVVGKLSFASSP [D10A]`: “normalised enrichment score” -0.141.
Under “normalised enrichment score”, `SLVVGKASFDSSP [L7A]` is recorded as -0.0838.
`SLVVGKLSFDASP [S11A]` — result for “normalised enrichment score”: 0.334.

Study 3
Target: CRIPT, C-terminal peptide
Technique: DHFR complementation, deep sequencing
Sample: yeast
Notes: single substitutions, model-inferred values
Baseline: wild type
Reading: higher = weaker binding
Starting sequence: ERBIN, PDZ domain 1 (human); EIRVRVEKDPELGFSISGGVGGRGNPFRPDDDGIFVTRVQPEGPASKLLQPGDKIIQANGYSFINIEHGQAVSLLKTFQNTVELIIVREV; partner TKNYKQTSV
Under “binding free energy change”, `P51A` is recorded as 0.11 kcal/mol.
For `A58K`, “binding free energy change” read 0.83 kcal/mol.
`E42D` — result for “binding free energy change”: -0.0034 kcal/mol.
`K8A`: “binding free energy change” 0.822 kcal/mol.
`G18Q`: “binding free energy change” 1.71 kcal/mol.
Under “binding free energy change”, `V87T` is recorded as 0.044 kcal/mol.
`F35C` — result for “binding free energy change”: 0.946 kcal/mol.

Other studies, line by line
`PhoQ, residues 284 288 289 292 302 303 SLANKL` has a fold induction of 11.2 (PhoP, residues 12 14 15 18 19 LHTVM (Escherichia coli, UniProt P23836); Sort-seq, refers to: YFP reporter; E. coli; PhoQ-PhoP variant library, together with: 10 µM Mg2+; baseline: high Mg2+ state, higher = stronger signaling).

Repeated from above (study 3):
Under “binding free energy change”, `V87T` is recorded as 0.044 kcal/mol.
`G18Q`: “binding free energy change” 1.71 kcal/mol.
`E42D` — result for “binding free energy change”: -0.0034 kcal/mol.
